{"data": "Measured values gathered from unrelated publications", "note": "Each numbered part is a random draw from the data of one study; scales do not carry over between parts. Changes are numbered by the printed parent chain."}
{"data": "Block 1", "target": "Interferon regulatory factor 7, full length, phosphomimetic (IRF7, Homo sapiens, UniProt Q92985, residues 1-503, S101K/S471D/S472D/S475D/S476D/S477D/S483D/S484D/S487D)", "method": "protein-binding microarray", "form": "double-stranded DNA, one strand shown", "sample": "in vitro", "tested at": "250 nM", "notes": "60-bp whole probe", "together with": "salmon DNA 0.4 mg/ml", "reference": "random background probes", "direction": "higher = stronger binding", "all sequences stand within": "GCCTAGCAC … GTCTTGATTCGCTTGACGCTGCTG", "chain of UniProt Q92985 (whole entry, unmodified, looked up)": "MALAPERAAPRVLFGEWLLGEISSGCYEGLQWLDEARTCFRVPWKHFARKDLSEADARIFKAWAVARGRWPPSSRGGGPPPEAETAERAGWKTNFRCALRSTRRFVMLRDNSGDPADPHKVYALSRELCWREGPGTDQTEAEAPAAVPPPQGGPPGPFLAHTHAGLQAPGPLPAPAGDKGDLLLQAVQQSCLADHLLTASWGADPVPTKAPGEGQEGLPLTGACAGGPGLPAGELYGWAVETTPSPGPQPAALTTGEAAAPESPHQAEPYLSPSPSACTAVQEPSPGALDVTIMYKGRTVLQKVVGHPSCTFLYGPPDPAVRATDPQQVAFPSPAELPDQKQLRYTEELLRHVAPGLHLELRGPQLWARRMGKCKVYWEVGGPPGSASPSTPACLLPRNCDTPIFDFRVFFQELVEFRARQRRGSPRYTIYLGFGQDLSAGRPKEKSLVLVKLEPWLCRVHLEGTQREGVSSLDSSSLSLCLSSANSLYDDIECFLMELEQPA"}
{"Sequence": "TTAGGTATCGGTATCGGTGAGTGCTAG", "log fluorescence": "1.44 z-score"}
{"Sequence": "GACGGACTGGGGTATCGGCACGTGCTA", "log fluorescence": "-0.952 z-score"}
{"Sequence": "TTGGGTTTCGGACTGGGTTAGTGCTAG", "log fluorescence": "3.09 z-score"}
{"Sequence": "TTAGGACTGGAGTTTCGGTTAGTGCTA", "log fluorescence": "6.3 z-score"}
{"Sequence": "TTGGGTCTCGGTCTCGGTTAGTGCTAG", "log fluorescence": "2.11 z-score"}
{"Sequence": "GACGATATCAATCTCGAGACGTGCTAG", "log fluorescence": "0.263 z-score"}
{"Sequence": "GACGTACTGCTACTGCTGACGTGCTAG", "log fluorescence": "-0.338 z-score"}
{"Sequence": "GGTTTTCTAATGTTTTTTAAAGTGCTA", "log fluorescence": "3.38 z-score"}
{"data": "Block 2", "target": "CCNE1, cyclin fold, Cln2 fusion (human)", "method": "yeast growth competition, sequencing", "sample": "yeast", "notes": "strong parent motif", "reference": "not given", "direction": "higher = stronger binding", "parent": "RBL1 docking peptide (human); GSAKRRLFGEDPP; partner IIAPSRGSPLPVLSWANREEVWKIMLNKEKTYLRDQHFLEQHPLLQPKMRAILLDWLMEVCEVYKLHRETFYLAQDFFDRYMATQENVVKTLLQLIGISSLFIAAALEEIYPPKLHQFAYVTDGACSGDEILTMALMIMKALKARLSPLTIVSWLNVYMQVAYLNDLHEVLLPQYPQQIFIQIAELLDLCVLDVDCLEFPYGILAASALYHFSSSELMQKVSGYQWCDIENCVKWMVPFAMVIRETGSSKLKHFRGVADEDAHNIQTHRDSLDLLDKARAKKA"}
{"Variant": "GSAKRRLHGEDPP [F8H]", "normalised enrichment score": -0.0731}
{"Variant": "GSAKRMLFGEDPP [R6M]", "normalised enrichment score": 3.24}
{"Variant": "GSAKRRLFGEDNP [P12N]", "normalised enrichment score": 5.87}
{"Variant": "GSAVRRLFGEDPP [K4V]", "normalised enrichment score": 7.11}
{"Variant": "GSAKRLLFGEDPP [R6L]", "normalised enrichment score": 2.51}
{"Variant": "GSAKRELFGEDPP [R6E]", "normalised enrichment score": 1.88}
{"Variant": "ASAKRRLFGEDPP [G1A]", "normalised enrichment score": 7.04}
{"data": "Block 3", "target": "ATF3, bZIP domain (human)", "method": "DHFR protein complementation", "sample": "yeast", "notes": "single substitutions, most at no-binding floor", "reference": "wild-type JUN-FOS pair", "direction": "higher = stronger binding", "parent": "JUN, bZIP domain (human); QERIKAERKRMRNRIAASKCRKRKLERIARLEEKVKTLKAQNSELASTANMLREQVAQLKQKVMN; partner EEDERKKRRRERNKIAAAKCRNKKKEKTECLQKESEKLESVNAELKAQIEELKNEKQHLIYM"}
{"Variant": "L52A", "binding fitness [natural log]": -1.26}
{"Variant": "K39G", "binding fitness [natural log]": -0.504}
{"Variant": "S43A", "binding fitness [natural log]": 0.0541}
{"Variant": "V35W", "binding fitness [natural log]": -0.591}
{"data": "Further values, each from its own experiment"}
{"Substance": "PhoQ, residues 284 288 289 292 302 303 SSTLLI", "target": "PhoP, residues 12 14 15 18 19 HLGGL (Escherichia coli, UniProt P23836)", "assay": "Sort-seq, measured: YFP reporter", "test system": "E. coli", "conditions": "PhoQ-PhoP variant library, together with: 10 µM Mg2+", "scale": "reference: high Mg2+ state, higher = stronger signaling", "endpoint": "fold induction", "result": 1.1}
{"note": "For quick reference, copied from above (block 2):"}
{"Variant": "GSAVRRLFGEDPP [K4V]", "normalised enrichment score": 7.11}
{"Variant": "GSAKRMLFGEDPP [R6M]", "normalised enrichment score": 3.24}
